Measurements pooled from the literature.
Each line is one published result; not all experiments were run side by side. Values joined by “and” are separate records of one study, mostly repeats; a detail may differ. ± marks the error that the study gave. In brackets after ≈: the same amount, converted by molar mass.
DRD4: D(4) dopamine receptor (DRD4, Homo sapiens, UniProt P21917)
Sequence of UniProt P21917 (whole entry, looked up): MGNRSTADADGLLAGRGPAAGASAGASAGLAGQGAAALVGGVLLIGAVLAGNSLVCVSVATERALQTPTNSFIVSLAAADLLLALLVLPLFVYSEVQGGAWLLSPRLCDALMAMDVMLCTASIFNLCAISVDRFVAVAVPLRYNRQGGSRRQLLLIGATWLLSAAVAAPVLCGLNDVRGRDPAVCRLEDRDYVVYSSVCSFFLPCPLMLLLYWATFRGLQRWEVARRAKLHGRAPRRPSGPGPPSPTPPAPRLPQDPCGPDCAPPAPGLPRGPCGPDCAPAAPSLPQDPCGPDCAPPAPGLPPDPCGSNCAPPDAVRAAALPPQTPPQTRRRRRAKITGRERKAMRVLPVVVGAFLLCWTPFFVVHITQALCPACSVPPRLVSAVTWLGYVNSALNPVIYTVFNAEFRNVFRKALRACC
Sequence of UniProt O75676 (whole entry, looked up): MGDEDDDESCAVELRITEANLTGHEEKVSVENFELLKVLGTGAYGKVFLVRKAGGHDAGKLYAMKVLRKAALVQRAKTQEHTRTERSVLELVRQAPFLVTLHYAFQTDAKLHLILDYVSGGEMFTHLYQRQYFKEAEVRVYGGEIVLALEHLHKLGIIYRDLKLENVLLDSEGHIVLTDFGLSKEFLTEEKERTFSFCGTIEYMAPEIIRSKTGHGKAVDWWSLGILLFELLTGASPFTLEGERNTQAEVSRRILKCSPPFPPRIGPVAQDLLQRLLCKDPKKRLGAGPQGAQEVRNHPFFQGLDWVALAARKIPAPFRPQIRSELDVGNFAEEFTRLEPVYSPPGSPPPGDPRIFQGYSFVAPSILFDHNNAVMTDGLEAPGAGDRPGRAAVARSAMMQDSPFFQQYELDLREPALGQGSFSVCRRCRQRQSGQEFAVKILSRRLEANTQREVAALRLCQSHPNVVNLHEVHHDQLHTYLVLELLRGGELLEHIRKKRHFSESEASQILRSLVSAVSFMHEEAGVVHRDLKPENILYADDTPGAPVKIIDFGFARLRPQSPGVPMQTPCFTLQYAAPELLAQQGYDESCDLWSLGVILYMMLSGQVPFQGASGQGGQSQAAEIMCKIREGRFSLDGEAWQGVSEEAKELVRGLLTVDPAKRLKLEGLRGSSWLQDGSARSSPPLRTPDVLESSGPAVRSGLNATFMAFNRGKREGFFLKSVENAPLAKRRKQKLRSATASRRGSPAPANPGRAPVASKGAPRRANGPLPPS
Sequence of UniProt Q92851 (whole entry, looked up): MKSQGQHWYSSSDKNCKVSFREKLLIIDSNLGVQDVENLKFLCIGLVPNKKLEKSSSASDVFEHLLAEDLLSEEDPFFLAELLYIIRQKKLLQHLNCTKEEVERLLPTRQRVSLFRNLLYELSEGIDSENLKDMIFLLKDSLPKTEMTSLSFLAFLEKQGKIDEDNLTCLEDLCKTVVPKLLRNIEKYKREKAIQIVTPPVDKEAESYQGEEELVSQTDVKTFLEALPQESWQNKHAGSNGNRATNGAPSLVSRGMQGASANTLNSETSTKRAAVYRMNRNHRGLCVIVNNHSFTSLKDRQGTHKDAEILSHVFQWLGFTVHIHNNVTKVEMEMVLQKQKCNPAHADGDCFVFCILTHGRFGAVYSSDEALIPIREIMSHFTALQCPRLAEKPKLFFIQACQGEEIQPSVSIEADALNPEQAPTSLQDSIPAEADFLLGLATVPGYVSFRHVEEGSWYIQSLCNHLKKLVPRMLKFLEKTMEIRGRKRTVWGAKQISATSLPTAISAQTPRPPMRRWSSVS

CCc1cc(OCCOCCN(C)C)ccc1Cl — larval motion (zebrafish larvae, 7 dpf; 10 µM, minute 4): 10 ± 1.9 pixels/frame
C=CC(=O)Nc1cccc(Cn2ncc3cnc(Nc4cnn(CCOC)c4)nc32)c1 — percent of control (OSR1 human; binding, KINOMEscan; 100 nM; lower = stronger binding): 93%
CCN(C(=O)c1cc(F)ccc1Oc1nncnc1N1CCC2(C1)CN([C@H](CCCN(C)CCOC)C(C)C)C2)C(C)C — GI50 (JIMT-1; cell growth or viability; 72 h): > 10000 nM
Nc1ncc(-c2cc(-c3cnn(CC(F)(F)F)c3)ncc2F)nc1C(=O)NC1CNCC(F)C1 (stereo not shown) — remaining binding (CDKL3; KINOMEscan; 1 µM; baseline: DMSO control): 91%
CCCC[C@H](NC(=O)COCCOCCNC(=O)CN1CCN(CC(=O)O)CCN(CC(=O)O)CC1)C(=O)N[C@H]1CC(=O)NCCCC[C@@H](C(N)=O)NC(=O)[C@H](Cc2c[nH]c3ccccc23)NC(=O)[C@H](CCCNC(=N)N)NC(=O)[C@@H](Cc2ccccc2)NC(=O)[C@H](Cc2c[nH]cn2)NC1=O [technetium-99m labelled] — tissue uptake (C57 mouse, intestine; intravenous, 0.037 MBq, 0.5 h): 4.49 ± 1.09 %ID
C=C1CC[C@H](OCCCNC(=O)CCOCCOCCOCCOCCOCCOCCOCCOCCOCCOCCOCCOCCOCCOCCOCCOCCOCCOCCOCCOCCOCCOCCOCCOCCOCCOCCOCCOCCOCCOCCOCCOCCOCCOCCOCCOCCNC(=O)CCN2C(=O)CC(SC[C@H](NC(=O)[C@H](Cc3ccccc3)NC(=O)[C@H](CC(N)=O)NC(=O)[C@H](Cc3c[nH]cn3)NC(=O)[C@@H](NC(=O)[C@H](CC(=O)O)NC(=O)[C@H](CCC(N)=O)NC(=O)[C@H](CC(C)C)NC(=O)[C@H](CCCCN)NC(=O)[C@H](CCCCN)NC(=O)[C@H](CCCNC(=N)N)NC(=O)[C@H](CC(C)C)NC(=O)[C@H](Cc3c[nH]c4ccccc34)NC(=O)[C@H](CCC(=O)O)NC(=O)[C@@H](NC(=O)[C@H](CCCNC(=N)N)NC(=O)[C@H](CCC(=O)O)NC(=O)[C@H](CCSC)NC(=O)[C@H](CO)NC(=O)[C@H](CC(N)=O)NC(=O)[C@H](CC(C)C)NC(=O)[C@H](Cc3c[nH]cn3)NC(=O)[C@H](CCCCN)NC(=O)CNC(=O)[C@H](CC(C)C)NC(=O)[C@H](CC(N)=O)NC(=O)[C@H](Cc3c[nH]cn3)NC(=O)[C@H](CCSC)NC(=O)[C@H](CC(C)C)NC(=O)[C@H](CCC(N)=O)NC(=O)[C@@H](NC(=O)[C@H](CCC(=O)O)NC(=O)[C@H](CO)NC(=O)[C@@H](NC(=O)[C@@H](N)CO)C(C)C)[C@@H](C)CC)C(C)C)C(C)C)C(=O)O)C2=O)C/C1=C/C=C1\CCC[C@]2(C)[C@@H]([C@H](C)CCCC(C)(C)O)CC[C@@H]12 (stereo partly shown) — AUC(0-t) (male Sprague-Dawley rat, plasma; subcutaneous, 30 µg/kg, single dose): 170 ng·h/mL
CC(=O)N[C@@H](Cc1ccc(C)cc1)C(=O)N[C@@H](CCCC(=O)O)C(=O)N[C@H](C(=O)N[C@@H](CC(=O)O)C(=O)COC(=O)c1c(C)cccc1C)C(C)(C)C — kinact/KI (Caspase-10 (CASP10, Homo sapiens, UniProt Q92851); enzyme activity, inhibitor): 218000 M⁻¹ s⁻¹
CN(C)CCOCCOc1ccc(Cl)c(Cl)c1 — larval motion (zebrafish larvae, 7 dpf; 10 µM, minute 2): 6.7 ± 1.9 pixels/frame
CC(C)Oc1ccc(N)cc1 — average chemical shift perturbation (HBV core protein Cp149 dimer; solution NMR; 4 molar equivalents, pH 7.5, 295 K, average over eight residues; baseline: apo Cp149 dimer): 0.035 ppm
CC(C)c1ccc(N(C)c2ccc3c(c2)OCC[C@H]3CNc2cnccc2C(=O)O)cc1 — IC50 (REH; cell growth or viability, ATP luminescence; 7 days): 1.21 nM
Cc1cc(OCCOCCn2ccnc2)cc(C(C)C)c1 — larval motion (zebrafish larvae, 7 dpf; 10 µM, minute 4): 7.8 ± 1.2 pixels/frame
Cc1cc(=O)c2c(O)c3c(O[C@@H]4O[C@H](CO)[C@@H](O)[C@H](O)[C@H]4O)cc(O)cc3cc2o1 — cell viability (HK-2 co-cultured with HepaRG; MTT; 33.33 µM, 48 h; baseline: untreated control): 86 ± 9.77%
C=CC(=O)N1[C@H](c2ccc3c(c2)OCO3)c2[nH]c3ccccc3c2C[C@@H]1C(=O)N1CCN(C)CC1 — relative co-enrichment (human cyclin E1 N112C-3xFLAG:CDK2; co-IP with TMT proteomics, measured: RPSA; concentration not given, P08865; baseline: wild type DMSO): 104%
C=C(NC(=O)c1csc(-c2nc3c(cc2O)-c2nc(cs2)C(=O)NC(C(C)O)C(=O)NC(=C(C)OC)c2nc(cs2)C(=O)NC2c4nc(cs4)C(=O)NC(COC(=O)c4c5c6c(cccc6n4O)COC(=O)C(OC4CC(C)(O)C(N(C)C)C(C)O4)C2OC5)c2nc-3cs2)n1)C(N)=O (stereo not shown) — MIC90 (Streptococcus agalactiae; microbial growth; clinical isolate): 0.125 µg/mL (≈ 0.087 µM)
CN(C)C(=O)c1ccnc(N2Cc3cn(Cc4ccc(F)cc4F)nc3C2)n1 — rotarod speed at fall (cuprizone-diet mice, rotarod test; oral, 5 mg/kg): 15 RPM and 17 RPM and 12 RPM and 14 RPM and 24 RPM
Cc1cc(C)cc(NC(=O)CCN2CCCCCC2)c1 — larval motion (zebrafish larvae, 7 dpf; 10 µM, minute 6): 21.8 ± 2.6 pixels/frame
COC1CN([C@H]2CC[C@H]([C@@]3(C)Oc4c(Cl)cc(C(=O)NCc5c(SC)cc(C)[nH]c5=O)c(C)c4O3)CC2)C1 — log2 fold change (RNA-seq, measured: MAK mouse homolog; mouse, HT-1376 xenograft, whole blood; dose not given; baseline: vehicle): 1.59
COc1ccc(CN2CC(COc3ccc(F)c(C)c3)CC(F)(F)C2)cc1F (stereo not shown) — Ki (DRD4; ligand displacement, radioligand; cell membranes): 320 nM
c1ccc(-c2n[nH]cc2-c2ccnc3ccccc23)nc1 — log2 fold change (CMK2 (Candida albicans); kinase binding, MIB/MS competition; Candida albicans lysate; 1 µM; baseline: DMSO): 0.14
CCCC[C@H](NC(=O)CCCCCCCNC(=O)CN1CCN(CC(=O)O)CCN(CC(=O)O)CC1)C(=O)N[C@H]1CC(=O)NCCCC[C@@H](C(N)=O)NC(=O)[C@H](Cc2c[nH]c3ccccc23)NC(=O)[C@H](CCCNC(=N)N)NC(=O)[C@@H](Cc2ccccc2)NC(=O)[C@H](Cc2c[nH]cn2)NC1=O [technetium-99m labelled] — tissue uptake (C57 mouse, stomach; intravenous, 0.037 MBq, 4 h): 0.59 ± 0.41 %ID/g
Cc1nn(-c2cccc(N)c2)c(=O)c2cnc(Nc3ccc(N4CCNCC4)cc3)nc12 — IC50 (RPS6KA4 (Homo sapiens, UniProt O75676); enzyme activity, inhibitor): 2980 nM
CC(C)C[C@H](NC(=O)[C@@H](CCCCNC(=O)[C@@H](Cc1ccccc1)NC(=O)CCCCCNC(=O)CN1CCN(CC(=O)O)CCN(CC(=O)O)CCN(CC(=O)O)CC1)NC(=O)[C@H](Cc1ccc(O)cc1)NC(=O)[C@H](CO)NC(=O)[C@H](Cc1c[nH]c2ccccc12)NC(=O)[C@H](Cc1c[nH]cn1)NC(=O)[C@@H]1CCC(=O)N1)C(=O)N[C@@H](CCCNC(=N)N)C(=O)N1CCC[C@H]1C(=O)NCC(N)=O [indium-111 labelled] — tissue uptake (female athymic nude mice, brain; intravenous, 0.037 MBq, 4 h): 0.01 %ID/g
Cc1ncsc1-c1ccc(C(C)NC(=O)C2CC(O)CN2C(=O)C(NC(=O)CCCCCCCCCCN2CCCC(Nc3ncc(Cl)c(Nc4ccccc4S(=O)(=O)C(C)C)n3)C2)C(C)(C)C)cc1 (stereo not shown) — log2 fold change (22Rv1; RNA-seq, measured: TSSK2 mRNA; concentration not given; baseline: DMSO): -2.47
CNS(=O)(=O)Nc1nccc(Cc2c(C)c3ccc(Oc4ncccc4F)cc3oc2=O)c1F — IC50 (OCUG-1; cell viability; 7 days): > 1000 nM
Cn1ncc2cc(-c3cncc(Cl)c3N3CCC4(CCNC4=O)CC3)ccc21 — log2 fold change (LS174T; gene expression, microarray, measured: NPTX1 mRNA; concentration not given, 24 h; baseline: untreated cells): -2.27
COc1ccccc1C1CCN(CCC(=O)Nc2ccc(C)c(C)c2)CC1 — larval motion (zebrafish larvae, 7 dpf; 10 µM, minute 4): 1.2 ± 0.5 pixels/frame
Fc1ccc(OCC2CN(Cc3ncn4ccccc34)CCC2(F)F)cc1 (stereo not shown) — Ki (DRD4; ligand displacement, radioligand; cell membranes): 118 nM
CC(C)C[C@@H](NC(=O)[C@@H](CC(C)C)NC(=O)[C@@H](CC(=O)O)NC(=O)[C@@H](CC(C)C)NC(=O)[C@@H](CC(C)C)NC(=O)[C@@H](CC(C)C)NC(=O)[C@H](NC(=O)[C@@H](CC(=O)O)NC(=O)[C@H](NC(=O)[C@H]1CCCN1C(=O)[C@@H](Cc1ccccc1)NC(=O)[C@@H](CC(C)C)NC(=O)[C@@H](CC(C)C)NC(=O)[C@@H](CC(=O)O)NC(=O)[C@@H](CC(C)C)NC(=O)[C@@H](Cc1ccc(O)cc1)NC(=O)[C@@H](C)NC(=O)[C@@H](CCCNC(=N)N)NC(=O)[C@@H](Cc1c[nH]c2ccccc12)NC(=O)[C@H]1CCCN1C(=O)[C@@H](CC(N)=O)NC(=O)[C@@H](CCC(N)=O)NC(=O)[C@@H](CC(=O)O)NC(=O)[C@@H](CC(=O)O)NC(=O)[C@@H](CSC1CC(=O)N(CCNC(=O)CN2CCN(CC(=O)O)CCN(CC(=O)O)CC2)C1=O)NC(=O)[C@@H](C)N)[C@H](C)O)[C@H](C)O)C(=O)N[C@H](Cc1c[nH]c2ccccc12)C(=O)O (stereo partly shown) [copper-64 labelled] — tissue uptake (C57BL/6 mice, female, B16-F10 melanoma, blood; intravenous, 24 h): 6.37 %ID/g
CCN(CC)CC(=O)Nc1cccc(-n2cc(-c3ccc4ccc(-c5cn(-c6cccc(NC(=O)CN(CC)CC)c6)nn5)cc4c3)nn2)c1 — fold regulation (RCC4; PCR angiogenesis array, measured: ANGPT2; 5 x IC50, 4 h, normoxia; baseline: untreated): -1.37
O=C(CCN1CCN(C/C=C/c2ccccc2)CC1)Nc1ccccc1F — larval motion (zebrafish larvae, 7 dpf; 10 µM, minute 6): 8.3 ± 2.1 pixels/frame
CN1CCCNC(=O)c2cccc(c2)C(=O)NCCCN(C)CCCNc2cccc3c2C(=O)c2cccc(c2C3=O)NCCC1 — log2 fold change (SAS; RNA-Seq, measured: EHMT2 mRNA; 1 µM, 6 h; baseline: untreated cells): -0.759
